Measurements pooled from the literature.
Compare with care: the assays were run in different laboratories. Numbers after ± are the reported error.
cyp121: Mycocyclosin synthase (cyp121, Mycobacterium tuberculosis, UniProt P9WPP7)
Chain of UniProt P9WPP7 (whole entry, looked up): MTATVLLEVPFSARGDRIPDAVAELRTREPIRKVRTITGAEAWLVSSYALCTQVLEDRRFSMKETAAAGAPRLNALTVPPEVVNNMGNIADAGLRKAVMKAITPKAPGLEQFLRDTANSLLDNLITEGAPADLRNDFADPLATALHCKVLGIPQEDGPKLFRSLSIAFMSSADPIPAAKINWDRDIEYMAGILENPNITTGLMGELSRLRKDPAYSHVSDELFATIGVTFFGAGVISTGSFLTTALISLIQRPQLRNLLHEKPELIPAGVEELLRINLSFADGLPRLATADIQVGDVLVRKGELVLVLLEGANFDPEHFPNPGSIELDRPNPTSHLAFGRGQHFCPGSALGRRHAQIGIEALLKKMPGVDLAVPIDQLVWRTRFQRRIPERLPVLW
Spike glycoprotein: Spike glycoprotein (Severe acute respiratory syndrome coronavirus 2, UniProt P0DTC2)
gag capsid C-terminal domain: Gag polyprotein, capsid C-terminal domain (gag, UniProt P12493)
Chain of UniProt O82882 (whole entry, looked up): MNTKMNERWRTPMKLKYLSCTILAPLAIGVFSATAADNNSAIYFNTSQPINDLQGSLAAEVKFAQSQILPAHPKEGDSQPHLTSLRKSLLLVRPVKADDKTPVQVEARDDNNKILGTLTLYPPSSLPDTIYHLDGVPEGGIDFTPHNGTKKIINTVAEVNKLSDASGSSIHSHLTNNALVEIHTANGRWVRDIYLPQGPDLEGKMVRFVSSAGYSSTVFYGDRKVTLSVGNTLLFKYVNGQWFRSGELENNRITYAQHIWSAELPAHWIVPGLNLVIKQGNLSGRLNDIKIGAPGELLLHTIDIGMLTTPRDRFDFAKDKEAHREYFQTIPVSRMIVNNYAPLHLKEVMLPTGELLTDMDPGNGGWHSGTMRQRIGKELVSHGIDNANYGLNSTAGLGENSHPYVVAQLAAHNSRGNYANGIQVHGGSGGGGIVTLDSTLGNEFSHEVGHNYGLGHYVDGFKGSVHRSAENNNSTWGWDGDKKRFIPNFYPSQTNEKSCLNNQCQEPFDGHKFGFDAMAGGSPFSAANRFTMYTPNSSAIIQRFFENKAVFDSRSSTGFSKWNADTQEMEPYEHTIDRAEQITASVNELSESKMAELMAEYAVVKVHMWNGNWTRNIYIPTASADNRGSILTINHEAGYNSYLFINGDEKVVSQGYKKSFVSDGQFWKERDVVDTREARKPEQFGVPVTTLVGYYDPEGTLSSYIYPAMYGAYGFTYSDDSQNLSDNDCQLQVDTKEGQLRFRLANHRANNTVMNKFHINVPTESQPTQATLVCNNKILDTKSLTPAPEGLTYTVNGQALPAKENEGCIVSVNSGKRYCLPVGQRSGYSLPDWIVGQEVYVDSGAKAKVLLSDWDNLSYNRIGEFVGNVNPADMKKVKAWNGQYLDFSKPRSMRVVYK
Chain of UniProt P0A8V2 (whole entry, looked up): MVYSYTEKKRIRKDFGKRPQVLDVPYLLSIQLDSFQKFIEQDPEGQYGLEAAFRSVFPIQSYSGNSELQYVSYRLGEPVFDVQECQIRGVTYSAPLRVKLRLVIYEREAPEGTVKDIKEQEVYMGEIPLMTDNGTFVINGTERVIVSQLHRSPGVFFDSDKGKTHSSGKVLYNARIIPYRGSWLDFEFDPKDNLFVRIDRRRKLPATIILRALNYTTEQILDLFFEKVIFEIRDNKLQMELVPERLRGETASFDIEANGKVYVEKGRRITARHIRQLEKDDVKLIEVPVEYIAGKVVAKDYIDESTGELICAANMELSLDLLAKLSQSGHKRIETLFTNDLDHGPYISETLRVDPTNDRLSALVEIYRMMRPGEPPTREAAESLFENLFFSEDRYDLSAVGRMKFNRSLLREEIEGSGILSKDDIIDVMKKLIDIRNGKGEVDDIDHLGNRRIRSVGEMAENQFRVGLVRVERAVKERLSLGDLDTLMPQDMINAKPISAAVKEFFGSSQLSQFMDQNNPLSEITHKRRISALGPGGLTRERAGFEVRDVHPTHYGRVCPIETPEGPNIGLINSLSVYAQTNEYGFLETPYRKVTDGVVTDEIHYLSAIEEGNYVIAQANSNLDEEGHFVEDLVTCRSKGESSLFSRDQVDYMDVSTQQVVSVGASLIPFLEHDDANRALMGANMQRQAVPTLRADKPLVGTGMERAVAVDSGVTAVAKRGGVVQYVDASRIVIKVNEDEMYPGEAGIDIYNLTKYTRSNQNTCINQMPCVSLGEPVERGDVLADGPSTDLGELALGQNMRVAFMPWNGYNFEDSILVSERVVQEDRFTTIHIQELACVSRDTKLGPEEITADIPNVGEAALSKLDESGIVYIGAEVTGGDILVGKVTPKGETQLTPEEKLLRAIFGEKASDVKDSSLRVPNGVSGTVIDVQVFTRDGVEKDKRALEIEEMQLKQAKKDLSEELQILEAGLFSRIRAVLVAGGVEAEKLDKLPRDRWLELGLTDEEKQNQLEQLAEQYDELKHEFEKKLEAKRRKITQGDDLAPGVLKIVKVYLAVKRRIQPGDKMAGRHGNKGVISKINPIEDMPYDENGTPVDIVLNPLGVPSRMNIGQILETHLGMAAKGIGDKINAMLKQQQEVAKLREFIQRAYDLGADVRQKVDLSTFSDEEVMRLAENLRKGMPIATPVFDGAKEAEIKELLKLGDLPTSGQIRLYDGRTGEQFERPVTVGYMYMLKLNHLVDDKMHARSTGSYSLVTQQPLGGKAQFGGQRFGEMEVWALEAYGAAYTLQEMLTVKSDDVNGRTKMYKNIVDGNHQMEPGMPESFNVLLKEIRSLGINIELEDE
Chain of UniProt P78348 (whole entry, looked up): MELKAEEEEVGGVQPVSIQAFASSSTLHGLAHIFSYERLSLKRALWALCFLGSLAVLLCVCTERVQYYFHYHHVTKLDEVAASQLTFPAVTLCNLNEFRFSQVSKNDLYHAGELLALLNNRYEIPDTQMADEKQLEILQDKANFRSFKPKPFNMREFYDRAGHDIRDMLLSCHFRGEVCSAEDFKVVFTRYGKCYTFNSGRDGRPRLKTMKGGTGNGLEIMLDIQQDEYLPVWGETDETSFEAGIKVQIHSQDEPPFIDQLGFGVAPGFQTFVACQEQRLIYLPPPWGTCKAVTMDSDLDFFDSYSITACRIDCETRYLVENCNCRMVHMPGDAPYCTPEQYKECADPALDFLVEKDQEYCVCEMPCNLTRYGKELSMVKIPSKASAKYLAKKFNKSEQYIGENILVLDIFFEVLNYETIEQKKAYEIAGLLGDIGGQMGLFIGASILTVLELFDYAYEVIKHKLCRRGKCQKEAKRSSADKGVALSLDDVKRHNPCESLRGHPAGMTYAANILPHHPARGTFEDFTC
Chain of UniProt P0A8T7 (whole entry, looked up): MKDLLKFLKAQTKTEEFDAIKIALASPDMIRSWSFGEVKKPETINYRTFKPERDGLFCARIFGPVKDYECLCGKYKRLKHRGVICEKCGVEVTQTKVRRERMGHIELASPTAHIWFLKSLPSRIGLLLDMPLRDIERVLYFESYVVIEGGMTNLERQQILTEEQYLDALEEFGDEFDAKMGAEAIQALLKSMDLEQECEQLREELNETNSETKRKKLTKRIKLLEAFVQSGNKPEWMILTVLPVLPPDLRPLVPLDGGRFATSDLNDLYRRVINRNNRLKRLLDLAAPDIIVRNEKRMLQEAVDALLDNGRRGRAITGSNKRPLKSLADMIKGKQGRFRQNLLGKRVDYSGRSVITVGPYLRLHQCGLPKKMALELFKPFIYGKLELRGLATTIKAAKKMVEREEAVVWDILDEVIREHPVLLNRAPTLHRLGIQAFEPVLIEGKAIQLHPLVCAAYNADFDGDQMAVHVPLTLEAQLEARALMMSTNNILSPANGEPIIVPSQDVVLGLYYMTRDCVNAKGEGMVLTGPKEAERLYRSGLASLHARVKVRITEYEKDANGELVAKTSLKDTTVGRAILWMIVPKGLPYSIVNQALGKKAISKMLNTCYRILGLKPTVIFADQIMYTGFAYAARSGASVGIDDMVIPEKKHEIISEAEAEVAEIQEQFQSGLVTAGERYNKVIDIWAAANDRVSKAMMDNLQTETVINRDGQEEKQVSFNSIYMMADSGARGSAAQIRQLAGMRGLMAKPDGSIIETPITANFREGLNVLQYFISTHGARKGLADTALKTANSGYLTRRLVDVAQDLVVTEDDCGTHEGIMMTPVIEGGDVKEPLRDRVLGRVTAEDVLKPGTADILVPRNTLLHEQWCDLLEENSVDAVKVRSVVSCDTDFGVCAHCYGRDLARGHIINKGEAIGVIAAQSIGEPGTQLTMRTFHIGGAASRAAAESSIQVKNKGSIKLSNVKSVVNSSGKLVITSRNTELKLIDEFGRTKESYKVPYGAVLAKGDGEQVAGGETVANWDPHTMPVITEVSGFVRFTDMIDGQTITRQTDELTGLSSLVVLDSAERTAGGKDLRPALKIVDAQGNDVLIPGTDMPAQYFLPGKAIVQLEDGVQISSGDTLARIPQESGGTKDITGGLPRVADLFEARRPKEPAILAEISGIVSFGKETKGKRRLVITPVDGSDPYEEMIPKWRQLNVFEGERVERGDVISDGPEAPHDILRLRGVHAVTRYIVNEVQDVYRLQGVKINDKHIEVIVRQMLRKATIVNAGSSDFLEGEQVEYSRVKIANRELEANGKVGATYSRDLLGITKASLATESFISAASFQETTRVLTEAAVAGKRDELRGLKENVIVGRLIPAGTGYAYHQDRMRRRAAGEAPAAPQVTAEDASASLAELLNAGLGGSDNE

| Molecule | tested on | assay | test system | conditions | how to read | measurement | value |
| --- | --- | --- | --- | --- | --- | --- | --- |
| CC[C@H](C)[C@H](NC(=O)[C@H](CC(C)C)NC(=O)[C@H](Cc1c[nH]c2ccccc12)NC(=O)[C@H](CCC(N)=O)NC(=O)[C@@H](NC(=O)[C@H](Cc1ccccc1)NC(=O)[C@H](C)NC(=O)[C@H](CCCCNC(=O)COCCOCCNC(=O)COCCOCCNC(=O)CC[C@H](NC(=O)CCCCCCCCCCCCCCCCCCC(=O)O)C(=O)O)NC(=O)[C@H](CCC(N)=O)NC(=O)[C@H](C)NC(=O)[C@@H](NC(=O)[C@H](CCCCN)NC(=O)[C@H](CC(=O)O)NC(=O)[C@H](CC(C)C)NC(=O)C(C)(C)NC(=O)[C@@H](NC(=O)[C@H](CO)NC(=O)[C@H](Cc1ccc(O)cc1)NC(=O)[C@H](CC(=O)O)NC(=O)[C@H](CO)NC(=O)[C@@H](NC(=O)[C@H](Cc1ccccc1)NC(=O)[C@@H](NC(=O)CNC(=O)[C@H](CCC(=O)O)NC(=O)C(C)(C)NC(=O)[C@@H](N)Cc1ccc(O)cc1)[C@@H](C)O)[C@@H](C)O)[C@@H](C)CC)[C@@H](C)CC)C(C)C)C(=O)N[C@@H](C)C(=O)NCC(=O)NCC(=O)N1CCC[C@H]1C(=O)N[C@@H](CO)C(=O)N[C@@H](CO)C(=O)NCC(=O)N[C@@H](C)C(=O)N1CCC[C@H]1C(=O)N1CCC[C@H]1C(=O)N1CCC[C@H]1C(=O)N[C@@H](CO)C(N)=O | – | – | healthy human | 0.25 mg, single ascending dose | – | treatment-emergent adverse events | 16.7% |
| C=CC(c1ccc(-c2ccc3c(c2)OCO3)cc1)n1ccnc1 (stereo not shown) | cyp121 | binding | – | – | – | Kd | 6.7 ± 0.6 µM |
| Cn1cnc(Cn2c(=O)[nH]/c(=N\c3cc4cn(C)nc4cc3Cl)n(Cc3cc(F)c(F)cc3F)c2=O)n1 | – | – | human, moderate renal impairment | oral, 375 mg | – | treatment-related TEAE, Moderate severity | 12.5% |
| CC(=O)N[C@H]1[C@@H](OC[C@H](NC(=O)[C@H](C)NC(=O)[C@H](C)N)C(=O)N[C@H](C(=O)N[C@H](C(=O)N[C@H](C(=O)N2CCC[C@H]2C(=O)N[C@@H](C)C(=O)N2CCC[C@H]2C(=O)N[C@@H](C)C(N)=O)[C@@H](C)O[C@H]2O[C@H](CO)[C@H](O)[C@H](O)[C@H]2NC(C)=O)[C@@H](C)O[C@H]2O[C@H](CO)[C@H](O)[C@H](O)[C@H]2NC(C)=O)[C@@H](C)O[C@H]2O[C@H](CO)[C@H](O)[C@H](O)[C@H]2NC(C)=O)O[C@H](CO)[C@H](O)[C@@H]1O | Metalloprotease StcE (stcE, Escherichia coli O157:H7, UniProt O82882) | binding | Escherichia coli, EHEC | – | – | Kd | 0.00968 ± 0.0014 µM |
| CC(C)=CCc1cc2c(cc1O)O[C@H](c1ccc(O)cc1)CC2=O | Spike glycoprotein | binding | – | – | – | Kd | 56 µM |
| CNC(=O)[C@@H](NC(=O)[C@H](CC(C)C)[C@H](O)C(=O)NO)C(C)(C)C | human fibrinogen | SDS-PAGE | Daboia russelii | concentration not given, unit not given, added: KL venom | baseline: untreated fibrinogen | remaining fibrinogen γ chain | 0.847 |
| CC(=O)O[C@@H]1[C@H](N)[C@@H](OP(=O)(O)O)[C@@]2(C(=O)O)CS[C@@](O)(C(N)=O)[C@@H]1O2 | DNA-directed RNA polymerase subunit beta' / DNA-directed RNA polymerase subunit beta (rpoC/rpoB, Escherichia coli, UniProt P0A8T7+P0A8V2) | binding to elongation complex, 6-MI fluorescence titration | wild-type RNAP | 3′-deoxy RNA 3′-end Cytosine | – | Kd | 1.1 ± 0.7 µM |
| O=C(O)c1ccccc1-c1c2cc(Br)c(=O)cc-2oc2[c]([Hg+])c(O)c(Br)cc12 | Replicase polyprotein 1ab, main protease (rep, Severe acute respiratory syndrome coronavirus 2, UniProt P0DTD1) | binding, ITC | – | 25 °C, main binding site | – | Kd | 1.33 µM |
| CC[C@H]1CN2CCc3cc(OC)c(OC)cc3[C@@H]2C[C@@H]1C[C@H]1NCCc2cc(OC)c(OC)cc21 | Nucleoprotein (Severe acute respiratory syndrome coronavirus 2, UniProt P0DTC9) | binding, SPR | – | – | – | Kd | 18.6 µM |
| C=CC(c1ccc(-c2ccc(C#N)cc2)cc1)n1ccnc1 (stereo not shown) | cyp121 | binding | – | – | – | Kd | 10 ± 1.4 µM |
| CC[C@H](C)[C@H](N)C(=O)N[C@H](C(=O)N[C@@H](Cc1ccccc1)C(=O)N[C@H]1CSc2cc(C)c(cc2C)SC[C@@H](C(=O)N[C@@H](Cc2ccc(O)cc2)C(=O)N[C@@H](Cc2ccc(O)cc2)C(=O)NCC(=O)N[C@@H](CCCCN)C(=O)N[C@@H](CCCCN)C(=O)N[C@@H](CCCCN)C(N)=O)NC(=O)[C@H](CC(C)C)NC(=O)[C@H](CC(C)C)NC(=O)[C@H](CC(=O)O)NC1=O)[C@@H](C)O | gag capsid C-terminal domain | binding, biolayer interferometry | PBS | pH 7.4, 30 °C, biotinylated peptide immobilised, added: C-CA 5 to 100 µM | – | Kd | 9.7 ± 0.4 µM |
| O=C(/C=C/c1ccc(O)c(O)c1)O[C@H]1[C@H](O)C[C@](O)(C(=O)O)C[C@H]1OC(=O)/C=C/c1ccc(O)c(O)c1 | Spike glycoprotein | binding, biolayer interferometry | – | – | – | Kd | 22.1 µM |
| charybdotoxin | maxi-KCa channel, rat | channel block, planar bilayer single-channel | – | external site, +30 mV, added: 460 nM internal DTX-I | – | Kd | 0.00121 ± 0.00021 µM |
| Nc1ncnc2c([C@@H]3N[C@H](CO)[C@@H](O)[C@H]3O)c[nH]c12 | Zaire ebolavirus | viral replication, inhibitor | human Macrophage | 6.3 µM | – | inhibition | 0% |
| CC[C@H](C)[C@H](NC(=O)[C@H](CC(C)C)NC(=O)[C@H](CO)NC(=O)[C@H](Cc1c[nH]cn1)NC(=O)[C@@H](NC(=O)[C@H](CC(C)C)NC(=O)[C@H](CO)NC(=O)[C@@H](NC(=O)[C@H](Cc1ccc(O)cc1)NC(=O)[C@H](CC(N)=O)NC(=O)[C@H](CC(N)=O)NC(=O)[C@@H](NC(=O)[C@H](CCC(=O)O)NC(=O)[C@H](CCCNC(=N)N)NC(=O)[C@H](CC(=O)O)NC(=O)[C@H](Cc1c[nH]c2ccccc12)NC(=O)[C@H](CCC(=O)O)NC(=O)[C@H](CCSC)NC(=O)[C@H](Cc1c[nH]c2ccccc12)NC(C)=O)[C@@H](C)CC)[C@@H](C)O)[C@@H](C)CC)C(=O)N[C@@H](CCC(=O)O)C(=O)N[C@@H](CCC(=O)O)C(=O)N[C@@H](CO)C(=O)N[C@@H](CCC(N)=O)C(=O)N[C@@H](CC(N)=O)C(=O)N[C@@H](CCC(N)=O)C(=O)N[C@@H](CCC(N)=O)C(=O)N[C@@H](CCC(=O)O)C(=O)N[C@@H](CCCCN)C(=O)N[C@@H](CC(N)=O)C(=O)N[C@@H](CCC(=O)O)C(=O)N[C@@H](CCC(N)=O)C(=O)N[C@@H](CCC(=O)O)C(=O)N[C@@H](CC(C)C)C(=O)N[C@@H](CC(C)C)C(=O)NCC(=O)N[C@@H](CO)C(=O)NCC(=O)N[C@@H](CSCC(=O)O[C@H]1CC[C@@]2(C)C(=CC[C@H]3[C@@H]4CC[C@H]([C@H](C)CCCC(C)(C)O)[C@@]4(C)CC[C@@H]32)C1)C(N)=O | – | membrane binding, di-8-ANEPPS dipole potential | POPC:cholesterol LUVs | ratio 2:1 | – | Kd | 14.3 ± 8.2 µM |
| COc1cc2c3cc1Oc1c(OC)c(OC)cc4c1[C@@H](Cc1ccc(O)c(c1)Oc1ccc(cc1)C[C@@H]3N(C)CC2)N(C)CC4 | Spike glycoprotein | binding, BLI | – | – | – | Kd | 111 µM |
| CC[C@H](C)[C@H](NC(=O)[C@@H]1CCCN1C(=O)[C@H](C)NC(=O)[C@@H]1CSSC[C@@H]2NC(=O)[C@H](CC(=O)O)NC(=O)[C@H](CCCNC(=N)N)NC(=O)[C@H](CCC(=O)O)NC(=O)[C@H](CCCNC(=N)N)NC(=O)CNC(=O)[C@H](CC(=O)O)NC(=O)[C@@H]3CSSC[C@H](NC(=O)[C@H](CCC(=O)O)NC(=O)[C@H](CC(C)C)NC(=O)CNC(=O)[C@H](C)NC(=O)[C@H](CSSC[C@H](NC(=O)[C@H](Cc4ccccc4)NC(=O)[C@@H](N)CO)C(=O)N[C@@H](CC(C)C)C(=O)N[C@@H](C(C)C)C(=O)N[C@@H](CCCCN)C(=O)N[C@@H](Cc4c[nH]c5ccccc45)C(=O)N[C@@H](CCCCN)C(=O)N[C@@H](CCC(N)=O)C(=O)N3)NC2=O)C(=O)N[C@@H](Cc2c[nH]c3ccccc23)C(=O)N[C@@H](CCCCN)C(=O)N[C@@H](CCCNC(=N)N)C(=O)N[C@@H](CO)C(=O)NCC(=O)N[C@@H](CO)C(=O)N[C@@H](CCCCN)C(=O)N[C@@H](CO)C(=O)N[C@@H](CO)C(=O)N[C@@H](C(C)C)C(=O)N1)C(=O)N[C@H](C(=O)O)[C@@H](C)O | ASIC1 (Homo sapiens, UniProt P78348) | binding, SPR | – | pH 7.5 | – | Kd | 0.0127 µM |
| CC(C)=CCC[C@](C)(O[C@@H]1O[C@H](CO[C@@H]2O[C@H](CO)[C@@H](O)[C@H](O)[C@H]2O)[C@@H](O)[C@H](O)[C@H]1O)[C@H]1CC[C@]2(C)[C@@H]1[C@H](O)C[C@@H]1[C@@]3(C)CC[C@H](O[C@@H]4O[C@H](CO)[C@@H](O)[C@H](O)[C@H]4O)C(C)(C)[C@@H]3CC[C@]12C | Spike glycoprotein | binding, biolayer interferometry | – | – | – | Kd | 117 µM |
| CC[C@H](C)[C@H](N)C(=O)N[C@H](C(=O)N[C@@H](Cc1ccccc1)C(=O)N[C@H]1CSc2cc(F)cc(c2)SC[C@@H](C(=O)N[C@@H](Cc2ccc(O)cc2)C(=O)N[C@@H](Cc2ccc(O)cc2)C(=O)NCC(=O)N[C@@H](CCCCN)C(=O)N[C@@H](CCCCN)C(=O)N[C@@H](CCCCN)C(N)=O)NC(=O)[C@H](CC(C)C)NC(=O)[C@H](CC(C)C)NC(=O)[C@H](CC(=O)O)NC1=O)[C@@H](C)O | gag capsid C-terminal domain | binding, biolayer interferometry | PBS | pH 7.4, 30 °C, biotinylated peptide immobilised, added: C-CA 5 to 100 µM | – | Kd | 21 ± 2.4 µM |

Excerpt of the above:
| Molecule | tested on | assay | test system | conditions | how to read | measurement | value |
| --- | --- | --- | --- | --- | --- | --- | --- |
| CC[C@H](C)[C@H](N)C(=O)N[C@H](C(=O)N[C@@H](Cc1ccccc1)C(=O)N[C@H]1CSc2cc(C)c(cc2C)SC[C@@H](C(=O)N[C@@H](Cc2ccc(O)cc2)C(=O)N[C@@H](Cc2ccc(O)cc2)C(=O)NCC(=O)N[C@@H](CCCCN)C(=O)N[C@@H](CCCCN)C(=O)N[C@@H](CCCCN)C(N)=O)NC(=O)[C@H](CC(C)C)NC(=O)[C@H](CC(C)C)NC(=O)[C@H](CC(=O)O)NC1=O)[C@@H](C)O | gag capsid C-terminal domain | binding, biolayer interferometry | PBS | pH 7.4, 30 °C, biotinylated peptide immobilised, added: C-CA 5 to 100 µM | – | Kd | 9.7 ± 0.4 µM |
